{"data": "Published values from different studies", "note": "Each line is one published result; not all experiments were run side by side. Values joined by “and” are separate records of one study, mostly repeats; a detail may differ. Numbers after ± are the reported error."}
{"Compound": "Cc1sc2c(c1C)C(c1ccc(Cl)cc1)=N[C@@H](CC(N)=O)c1nnc(C)n1-2", "cell line": "OCI-Ly1", "setting": "1 µM, 120 h", "quantity": "viability", "result": "19.7%"}
{"Compound": "O=[N+]([O-])c1ccc(Cl)cc1", "cell line": "human cells", "assay": "reporter gene, agonist, luciferase reporter", "how to read": "reference: positive control", "quantity": "fitted curve top", "result": "0%"}
{"Compound": "Cc1cc(C(C)(C)c2ccc(O)c(C)c2)ccc1O", "cell line": "HepG2 spheroids", "assay": "planimetry", "setting": "2.5 µM, 0 to 24 h", "how to read": "reference: mean area of 72 h spheroids", "quantity": "spheroid area increase", "result": "122%"}
{"Compound": "COc1cc(CCC[P+](c2ccccc2)(c2ccccc2)c2ccccc2)c(OC)c2c1OCO2.[I-]", "cell line": "SK-MEL-5", "assay": "SRB", "quantity": "LC50", "result": "-5.29 log M"}
{"Compound": "O=S(=O)(c1ccc(O)cc1)c1ccc(O)cc1", "cell line": "HepG2 spheroids", "assay": "flow cytometry", "setting": "concentration not given, 96 h", "quantity": "cell cycle distribution", "result": "no effect"}
{"Compound": "O=C(Nc1ccc2[nH]nc(-c3ccncc3)c2c1)[C@@H]1CCN(CC(=O)N2CCN(c3ccc(-c4ncccn4)cc3)CC2)C1", "cell line": "HCT116", "assay": "IncuCyte", "setting": "concentration not given, 20 (unit not given)", "quantity": "PI-positive cells", "result": "6.83 count and 4.83 count and 5.08 count"}
{"Compound": "COc1cc(C(=O)c2c[nH]c3cc(-c4cccc(O)c4)ccc23)cc(OC)c1OC", "cell line": "MDA-MB-231", "setting": "100 nM, 20 h", "quantity": "rounded cells", "result": "> 90%"}
{"Compound": "O=C1N(Cc2ccccc2Cl)c2ccccc2C12NN=C(c1ccccc1)S2 (stereo not drawn)", "cell line": "MDA-MB-468", "assay": "gene expression array, measured: CCNA2 mRNA", "setting": "10 µM, 12 h", "how to read": "reference: untreated, down", "quantity": "fold change", "result": 1.59}
{"Compound": "O=C(Oc1ccccc1)[c-]1cccc1.[Fe+2].c1cc[cH-]c1", "cell line": "MCF-10A", "assay": "MTT", "setting": "concentration not given, 72 h", "quantity": "antiproliferative activity", "result": "inactive"}
{"Compound": "C/C=C(/C)C(=O)O[C@H]1C(C)=C2[C@H]([C@@H]1OC(=O)CCCCCCC)[C@@](C)(OC(C)=O)C[C@H](OC(=O)CCC)[C@@]1(O)[C@H]2OC(=O)[C@@]1(C)O", "cell line": "HEK-293T", "assay": "RNA-seq GSEA, measured: Hallmark KRAS signaling down", "setting": "500 nM, 6 h", "how to read": "direction not given", "quantity": "normalized enrichment score", "result": -1.15}
{"Compound": "CN1CCN(C2(CNC3CCN(c4cccc(-c5cc6cc(F)ccc6[nH]5)c4)CC3)CCC2)CC1", "cell line": "SN12C", "quantity": "CC50", "result": "7.93 µM"}
{"Compound": "C[C@@H](O)[C@H]1C(=O)N2C(C(=O)O)=C(SCCN=CN)C[C@H]12", "cell line": "Escherichia coli DH5α expressing KPC-2", "assay": "bacterial growth", "quantity": "MIC", "result": "16 µg/mL"}
{"Compound": "Cn1cncc1C1=CN(c2ncnc3[nH]cnc23)CCS1", "cell line": "HOP-62", "setting": "lung cancer", "quantity": "CC50", "result": "> 200 µM"}
{"Compound": "COc1c(C)c2c(c(O)c1C/C=C(\\C)CCC(=O)O)C(=O)OC2", "cell line": "MV4-11", "assay": "cell proliferation", "system": "blood cancer", "quantity": "IC50", "result": "0.331 µM"}
{"Compound": "Nc1nc2nc[nH]c2c(=S)[nH]1", "cell line": "HCT-116", "assay": "clonogenic", "setting": "0.625 µM, 10 days", "quantity": "surviving fraction", "result": 0.967}
{"Compound": "CCN(CC)c1ccc(C=NNC(=O)CSc2nc3ccccc3c(=O)n2Cc2ccc(S(N)(=O)=O)cc2)c(O)c1", "cell line": "HOP-62", "assay": "NCI five-dose screen", "quantity": "CC50", "result": "> 100 µM"}
{"Compound": "Nc1ncnc2c1ncn2[C@@H]1O[C@@H]2COP(=O)(O)O[C@H]3[C@@H](O)[C@H](n4cnc5c(=O)[nH]cnc54)O[C@@H]3COP(=O)(O)O[C@H]2[C@H]1O", "cell line": "HFF-1", "assay": "RNA sequencing, measured: Reactome chemokine receptor binding", "setting": "upregulated pathways", "how to read": "reference: mock", "quantity": "fold enrichment", "result": 8.98}
{"Compound": "CC(C)N1CCC(NC2CCN(c3cccc(-c4cc5cc(F)ccc5[nH]4)c3)CC2)CC1", "cell line": "EKVX", "quantity": "CC50", "result": "6.46 µM"}
{"Compound": "Cc1nn(-c2nc3ccc(Cl)c(Cl)c3[nH]2)c(O)c1C1OC(=O)c2ccccc21 (stereo not drawn)", "cell line": "RAW-ISG", "assay": "CCK-8", "setting": "10 µM", "quantity": "viability", "result": "103% and 104% and 105%"}
{"Compound": "COc1c(CCC[P+](c2ccccc2)(c2ccccc2)c2ccccc2)cc2c(c1OC)OCO2.[I-]", "cell line": "M14", "assay": "SRB", "quantity": "LC50", "result": "> -4 log M"}
{"Compound": "O=C1CCP(=S)(c2ccccc2)CC1", "cell line": "HCT-116", "assay": "trypan blue", "setting": "IC50, 72 h", "how to read": "reference: untreated", "quantity": "reduction of cell number", "result": "94%"}
{"Compound": "COc1ccc([C@H]2c3[nH]c4ccc(Cl)cc4c3CCN2C(=O)Oc2ccc(Cl)cc2)cc1", "cell line": "human dermal fibroblasts with PBMC", "assay": "cytokine secretion, measured: sVEGF", "setting": "0.01 µM, 48 h", "quantity": "inhibition", "result": "84%"}
{"Compound": "Nc1ncc(-c2nc(N3CCOCC3)nc(N3CCOCC3)n2)c(C(F)F)n1", "cell line": "OVCAR-3", "setting": "72 h", "quantity": "GI50", "result": "0.034 µM"}
{"Compound": "CCOC(=O)c1ccc(N2C(N)=C(C#N)C3(C(=O)Nc4ccccc43)C(C#N)=C2O)cc1 (stereo not drawn)", "cell line": "Caco-2", "assay": "qRT-PCR, measured: Bcl-2", "setting": "IC50", "how to read": "reference: untreated", "quantity": "mRNA fold change", "result": 0.194}
{"Compound": "O=C(O)[C@H]1O[C@@H](Oc2cc(-c3oc4cc(O)cc(O)c4c(=O)c3O)ccc2O)[C@H](O)[C@@H](O)[C@@H]1O", "cell line": "MDCKII-UGT1A1/MRP2 cells", "assay": "glucuronide efflux, substrate", "quantity": "Jmax", "result": "16 ± 5.53 pmol/mg/min"}
{"Compound": "Oc1ccc(C2(c3ccc(O)cc3)c3ccccc3-c3ccccc32)cc1", "cell line": "HepG2 spheroids", "assay": "Hoechst flow cytometry", "setting": "0.10 µM, 96 h", "quantity": "G2 phase cells", "result": "14.3 ± 7.3%"}
{"Compound": "CC#C[C@]1(O)CC[C@H]2[C@@H]3CCC4=CC(=O)CCC4=C3[C@@H](c3ccc(N(C)C)cc3)C[C@@]21C", "cell line": "zebrafish AB.9 GRE:Luc cells", "assay": "glucocorticoid reporter gene, antagonist", "setting": "5 nM, added: 10 nM dexamethasone", "quantity": "inhibition", "result": "inhibited"}
{"Compound": "COc1ccc2c(c1)[nH]c1c(C)nccc12", "cell line": "DU-145", "assay": "bisulfite pyrosequencing, measured: RASSF1A promoter CpG site 27", "setting": "concentration not given", "how to read": "reference: vehicle", "quantity": "methylation reduction", "result": "0.4%"}
{"Compound": "COc1ccc(NC(=O)Nc2ccc3c(c2)C=CCP(=O)(O)O3)cc1", "cell line": "A-375", "assay": "cell proliferation, MTT", "setting": "100 µM, 72 h, normoxia", "quantity": "maximal inhibition", "result": "50%"}
{"Compound": "COCCCn1c(N)c(C(=O)NC2CCCC2)c2nc3ccccc3nc21", "cell line": "OCI-Ly1", "setting": "1 µM, 120 h", "quantity": "viability", "result": "151%"}
